{"data": "Published values pooled from the literature", "AGER": "Advanced glycosylation end product-specific receptor (AGER, Homo sapiens, UniProt Q15109)", "GBA2": "Beta-glucosidase (GBA2, Homo sapiens, UniProt Q9HCG7)", "note": "Compare with care: the assays were run in different laboratories. “And” joins repeats or separate records; there may be more than shown. ± marks the error that the study gave."}
{"Structure (SMILES)": "Nc1ncc2c(n1)-c1c([nH]c3ccc(C4=CCOCC4)cc13)CCC2", "target or system": "PIP4K2C (Homo sapiens, UniProt Q8TBX8)", "assay": "binding, competition with immobilised ligand", "quantity": "Kd", "value": "0.019 µM"}
{"Structure (SMILES)": "CN1CCCNC(=O)c2cccc(c2)C(=O)NCCCN(C)CCCNc2cccc3c2C(=O)c2cccc(c2C3=O)NCCC1", "target or system": "SAS", "assay": "RNA-Seq, measured: AKAP8 mRNA", "setting": "1 µM, 6 h", "how to read": "relative to: untreated cells", "quantity": "log2 fold change", "value": -1.82}
{"Structure (SMILES)": "CC(C)[C@@H]1NC(=O)[C@H](Cc2ccccc2)NC(=O)CSC[C@@H](C(N)=O)NC(=O)[C@H](CCC(=O)O)NC(=O)[C@H](CO)NC(=O)[C@H](Cc2c[nH]c3cccc(Cl)c23)NC(=O)[C@H](C2CCCCC2)NC(=O)[C@H](C(C)C)NC(=O)[C@H](Cc2ccc(O)cc2)NC(=O)[C@H](CC(=O)O)NC(=O)[C@H](Cc2c[nH]c3ccccc23)NC(=O)[C@H](Cc2ccc(N)nc2)NC(=O)[C@H](Cc2c[nH]c3ccc(Cl)cc23)NC(=O)[C@H](CCC(=O)O)NC1=O", "target or system": "Interleukin-1 receptor-like 2 (IL1RL2, Homo sapiens, UniProt Q9HB29)", "assay": "reporter gene (SEAP), inhibitor, HEK-Blue IL-36R reporter", "system": "HEK-Blue IL-36R cells", "setting": "0.015 µM, 6 h, added: IL-36β 100 ng/mL", "quantity": "remaining activity", "value": "89.2%"}
{"Structure (SMILES)": "C=CC(=O)Nc1cccc(Cn2ncc3cnc(Nc4cnn(CCOC)c4)nc32)c1", "target or system": "human LOK", "assay": "KINOMEscan", "setting": "100 nM", "quantity": "binding", "value": "100%"}
{"Structure (SMILES)": "CCOC(=O)C1CC(CC)C2C=CC3CCN(C(=O)C4CCC5C=CC6(CCCN6C(=O)C(Cc6ccccc6Cl)NC(C)=O)C(=O)N54)C3C(=O)N12 (stereo not drawn)", "target or system": "Tyrosine-protein kinase Fyn, SH3 domain (FYN, Homo sapiens, UniProt P06241)", "assay": "binding", "quantity": "Kd", "value": "1900 µM"}
{"Structure (SMILES)": "O=C(Nc1ccc(C(=O)Nc2ccc3c(O)cc(S(=O)(=O)O)cc3c2)cc1)c1ccccc1", "target or system": "TREX1 (Homo sapiens, UniProt Q9NSU2)", "assay": "binding, fluorescence", "quantity": "Kd", "value": "20.8 µM"}
{"Structure (SMILES)": "CCc1nc2cc3ccccc3cc2cc1C(=O)N1CCC[C@H]1C(=O)N[C@@H](CCC/C=C\\CCC[C@H](NC(=O)[C@@H]1CCCN1C(=O)c1cc2cc3ccccc3cc2nc1CC)C(=O)N[C@@H](CCCCN)C(=O)NCCCN)C(=O)N[C@@H](CCCCN)C(=O)NCCCN", "target or system": "(CCUG)10 RNA", "assay": "SPR", "quantity": "Kd", "value": "0.292 µM"}
{"Structure (SMILES)": "Cc1ccc(CN)cc1", "target or system": "Maoa (Rattus norvegicus, UniProt P21396)", "setting": "pH 7.5, deprotonated amine, pKa-corrected", "quantity": "Kd", "value": "0.39 µM"}
{"Structure (SMILES)": "O=C(Nc1ccc(Cl)cc1)Nc1ccc(C2CC(c3ccc(Cl)cc3)=NN2)cc1 (stereo not drawn)", "target or system": "AGER", "assay": "binding", "quantity": "Kd", "value": "59.3 ± 7.6 µM"}
{"Structure (SMILES)": "Cc1cccc2c1N(C(=O)n1ccnn1)CC2", "target or system": "KAI2 (Arabidopsis thaliana, UniProt Q9SZU7, H246F)", "assay": "ITC", "setting": "H246F mutant", "quantity": "Kd", "value": "92.6 µM and 49.3 µM and 158 µM"}
{"Structure (SMILES)": "CCCCCCCO[C@H]1O[C@H](CO)[C@@H](O)[C@H](O)[C@@H]1O", "target or system": "Type 1 fimbrin D-mannose specific adhesin, lectin domain (fimH, Escherichia coli K-12, UniProt P08191)", "assay": "binding, isothermal titration calorimetry", "setting": "15 °C, global fit, two runs", "quantity": "Kd", "value": "0.0206 µM"}
{"Structure (SMILES)": "C[n+]1c(/C=C/c2ccc(N(c3ccccc3)c3ccccc3)cc2)cc(/C=C2\\Sc3ccccc3N2CCCN2CCCC2)c2ccccc21", "target or system": "Ds26 DNA", "assay": "isothermal titration calorimetry", "setting": "pH 7.4, 25 °C, 2% DMSO", "quantity": "Kd", "value": "46.5 µM"}
{"Structure (SMILES)": "Cc1c[nH]c2nccc(-c3ccc(C(=O)N[C@@H]4c5c(F)cc(C(F)F)cc5C[C@@H]4O)cn3)c12", "target or system": "MAP2K1 (Homo sapiens, UniProt Q02750)", "assay": "binding, competition with immobilised ligand", "quantity": "Kd", "value": "0.029 µM"}
{"Structure (SMILES)": "COc1ccc(OC)c(-n2nnc(C(=O)Nc3cc(OCCOCCOCCOCCNC(=O)CCc4ccc5n4[B-](F)(F)[N+]4=C(C)C=C(C)C4=C5)cc(C(C)(C)C)c3)c2C)c1", "target or system": "Nuclear receptor subfamily 1 group I member 2, ligand-binding domain (NR1I2, Homo sapiens, UniProt O75469, L411W)", "assay": "binding", "setting": "PXR LBD L411W", "quantity": "Kd", "value": "0.047 ± 0.0006 µM"}
{"Structure (SMILES)": "CCCCCNC(=O)N1N=C(c2ccc(NC(=O)Nc3ccc(Cl)cc3)cc2)CC1c1ccc(Cl)cc1 (stereo not drawn)", "target or system": "AGER", "assay": "binding", "quantity": "Kd", "value": "13 ± 3.2 µM"}
{"Structure (SMILES)": "CCOC(=O)Nc1ccc(NCc2ccc(F)cc2)nc1N", "target or system": "PLCG2 (Homo sapiens, UniProt P16885)", "assay": "binding, surface plasmon resonance", "setting": "25 °C, immobilised residues 1-1195", "quantity": "Kd", "value": "22 µM"}
{"Structure (SMILES)": "Nc1ncc(-c2cc(-c3cnn(CC(F)(F)F)c3)ncc2F)nc1C(=O)NC1CNCC(F)C1 (stereo not drawn)", "target or system": "CHEK1 (Homo sapiens, UniProt O14757)", "assay": "binding, competition with immobilised ligand", "quantity": "Kd", "value": "0.81 µM"}
{"Structure (SMILES)": "Clc1ccc2c(c1)N(CCCN1CCN(CCn3cc(CN4CCCNCCN(Cc5cn(CCN6CCN(CCCN7c8ccccc8Sc8ccc(Cl)cc87)CC6)nn5)CCCNCC4)nn3)CC1)c1ccccc1S2", "target or system": "APP (Homo sapiens, UniProt P05067)", "assay": "binding, NMR", "quantity": "Kd", "value": "4.6 µM"}
{"Structure (SMILES)": "OC[C@@H]1[C@@H](O)[C@H](O)[C@@H](O)CN1CCCCCOCC12CC3CC(C1)CC(COCCCCCN1C[C@H](O)[C@@H](O)[C@H](O)[C@H]1CO)(C3)C2", "target or system": "GBA2", "assay": "inhibitor, 4MU-β-D-glucopyranoside", "system": "HEK293T homogenates overexpressing GBA2", "how to read": "relative to: GBA1 IC50 over GBA2 IC50", "quantity": "selectivity ratio", "value": 34}
{"Structure (SMILES)": "CCc1nc2cc3ccccc3cc2cc1C(=O)N[C@@H](CCCCN)C(=O)N[C@@H](C/C=C\\C[C@H](NC(=O)[C@H](CCCCN)NC(=O)c1cc2cc3ccccc3cc2nc1CC)C(=O)N1CCC[C@H]1C(=O)NCCCN)C(=O)N1CCC[C@H]1C(=O)NCCCN", "target or system": "(CCUG)10 RNA", "assay": "SPR", "quantity": "Kd", "value": "0.313 µM"}
{"Structure (SMILES)": "Nc1ncnc2c1ncn2C1OC(CN(CCCC2CNCc3c2ccc(Cl)c3Cl)CCC(N)C(=O)O)C(O)C1O (mixture of isomers)", "target or system": "PNMT (Homo sapiens, UniProt P11086)", "assay": "ITC", "setting": "pH 8.0, 25 °C, first site, SAH-bound enzyme", "quantity": "Kd", "value": "0.01 ± 0.003 µM"}
{"Structure (SMILES)": "CC(C)C[C@H](NC(=O)[C@H](Cc1ccc(O)cc1)NC(=O)[C@@H](CCCNC(=N)N)NC(=O)[C@@H](CO)NC(=O)[C@H](Cc1ccccc1)NC(=O)[C@H](CC1CCCCC1)NC(=O)[C@H](CC(=O)O)NC(=O)CN1CCN(CC(=O)O)CCN(CC(=O)O)CCN(CC(=O)O)CC1)C(=O)N[C@@H](Cc1c[nH]c2ccccc12)C(=O)N[C@@H](CO)C(=O)O [copper-64 labelled]", "system": "human, adrenal", "setting": "concentration not given, 3 h", "quantity": "activity concentration", "value": "2690 Bq/mL and 2510 Bq/mL and 2800 Bq/mL and 1560 Bq/mL and 2000 Bq/mL and 3550 Bq/mL"}
{"Structure (SMILES)": "O=C(N/N=C/c1ccc2c(ccc[n+]2Cc2ccccc2)c1)C(=O)N/N=C/c1ccc2c(ccc[n+]2Cc2ccccc2)c1", "target or system": "myc22 MYC G4-DNA parallel", "assay": "FRET melting", "setting": "1 µM, K1 buffer, DNA 0.2 µM, added: ds26 10 µM", "quantity": "ΔTm", "value": "4.8 ± 0.1 °C"}
{"Structure (SMILES)": "COC(=O)CCCNC(=O)c1cc(S(N)(=O)=O)c(Cl)cc1NC1CCCCC1", "target or system": "CA4 (Homo sapiens, UniProt P22748)", "setting": "pH 7", "quantity": "Kd", "value": "1.6 µM"}
{"Structure (SMILES)": "CC(=O)NC(Cc1ccccc1Cl)C(=O)N1CCCC12C=CC1CCC(C(=O)N3CCC4C=CC5CCC(C(=O)O)N5C(=O)C43)N1C2=O (stereo not drawn)", "target or system": "VASP (Homo sapiens, UniProt P50552)", "assay": "binding, fluorescence", "quantity": "Kd", "value": "2.3 µM"}
{"Structure (SMILES)": "COC1CN([C@H]2CC[C@H]([C@@]3(C)Oc4c(Cl)cc(C(=O)NCc5c(SC)cc(C)[nH]c5=O)c(C)c4O3)CC2)C1", "assay": "RNA-seq, measured: PLS1", "system": "human, whole blood", "setting": "dose not given, 24 h", "how to read": "relative to: pretreatment baseline", "quantity": "log2 fold change", "value": 1.57}
{"Structure (SMILES)": "CCc1nc2cc3ccccc3cc2cc1C(=O)N1CCC[C@H]1C(=O)N[C@@H](C/C=C\\C[C@H](NC(=O)[C@@H]1CCCN1C(=O)c1cc2cc3ccccc3cc2nc1CC)C(=O)N[C@@H](CCCCN)C(=O)NCCCN)C(=O)N[C@@H](CCCCN)C(=O)NCCCN", "target or system": "(CCUG)10 RNA", "assay": "SPR", "quantity": "Kd", "value": "0.038 µM"}
{"Structure (SMILES)": "OC[C@H]1[C@@H](O)[C@H](O)[C@@H](O)CN1CCCCCOCCC12CC3CC(CC(C3)C1)C2", "target or system": "GBA2", "assay": "inhibitor, 4MU-β-D-glucopyranoside", "system": "HEK293T homogenates overexpressing GBA2", "how to read": "relative to: GCS IC50 over GBA2 IC50", "quantity": "selectivity ratio", "value": 833}
{"Structure (SMILES)": "CC[n+]1cccc2cc(/C=N/NC(=O)c3cccc(C(=O)N/N=C/c4ccc5c(ccc[n+]5CC)c4)c3)ccc21", "target or system": "myc22 MYC G4-DNA parallel", "assay": "FRET melting", "setting": "1 µM, K1 buffer, DNA 0.2 µM, added: ds26 10 µM", "quantity": "ΔTm", "value": "4.5 ± 0.2 °C"}
{"Structure (SMILES)": "NCCCC[C@H](NC(=O)[C@H](C/C=C/C[C@H](NC(=O)[C@@H]1CCCN1)C(=O)N[C@@H](CCCCN)C(=O)NCCCN)NC(=O)[C@@H]1CCCN1)C(=O)NCCCN", "target or system": "(CCUG)10 RNA", "assay": "SPR", "quantity": "Kd", "value": "41.1 µM"}
{"note": "Repeated from above:"}
{"Structure (SMILES)": "Nc1ncc(-c2cc(-c3cnn(CC(F)(F)F)c3)ncc2F)nc1C(=O)NC1CNCC(F)C1 (stereo not drawn)", "target or system": "CHEK1 (Homo sapiens, UniProt O14757)", "assay": "binding, competition with immobilised ligand", "quantity": "Kd", "value": "0.81 µM"}
{"Structure (SMILES)": "CCc1nc2cc3ccccc3cc2cc1C(=O)N1CCC[C@H]1C(=O)N[C@@H](CCC/C=C\\CCC[C@H](NC(=O)[C@@H]1CCCN1C(=O)c1cc2cc3ccccc3cc2nc1CC)C(=O)N[C@@H](CCCCN)C(=O)NCCCN)C(=O)N[C@@H](CCCCN)C(=O)NCCCN", "target or system": "(CCUG)10 RNA", "assay": "SPR", "quantity": "Kd", "value": "0.292 µM"}
{"Structure (SMILES)": "OC[C@@H]1[C@@H](O)[C@H](O)[C@@H](O)CN1CCCCCOCC12CC3CC(C1)CC(COCCCCCN1C[C@H](O)[C@@H](O)[C@H](O)[C@H]1CO)(C3)C2", "target or system": "GBA2", "assay": "inhibitor, 4MU-β-D-glucopyranoside", "system": "HEK293T homogenates overexpressing GBA2", "how to read": "relative to: GBA1 IC50 over GBA2 IC50", "quantity": "selectivity ratio", "value": 34}
{"Structure (SMILES)": "O=C(N/N=C/c1ccc2c(ccc[n+]2Cc2ccccc2)c1)C(=O)N/N=C/c1ccc2c(ccc[n+]2Cc2ccccc2)c1", "target or system": "myc22 MYC G4-DNA parallel", "assay": "FRET melting", "setting": "1 µM, K1 buffer, DNA 0.2 µM, added: ds26 10 µM", "quantity": "ΔTm", "value": "4.8 ± 0.1 °C"}
{"Structure (SMILES)": "Nc1ncc2c(n1)-c1c([nH]c3ccc(C4=CCOCC4)cc13)CCC2", "target or system": "PIP4K2C (Homo sapiens, UniProt Q8TBX8)", "assay": "binding, competition with immobilised ligand", "quantity": "Kd", "value": "0.019 µM"}
